Measured values pooled from the literature.
Each line is one published result; not all experiments were run side by side. “And” joins repeats or separate records; there may be more than shown.
Target: Serine/threonine-protein kinase WNK2 (WNK2, Homo sapiens, UniProt Q9Y3S1)

| test | setting | how to read | measurement | value | Compound |
| --- | --- | --- | --- | --- | --- |
| binding, competition with immobilised ligand | 1 µM | – | remaining binding | 100% | CCN1CCN(Cc2ccc(NC(=O)c3ccc(C)c(NC(=O)c4cncc(-c5cnn(C)c5)c4)c3)cc2C(F)(F)F)CC1 |
| binding, competition with immobilised ligand | 1 µM | – | remaining binding | 63% | CNC(=O)C1CCN(c2cc(C)c(F)cc2NC(=O)c2ccc(-c3cc(O)ccc3C)c(C)c2)CC1 |
| enzyme activity, inhibitor | 1 µM | – | inhibition | 4% | CN1CC[C@@H](COc2cnc(C#N)cc2-c2ccn3nc(NC(=O)C4CC4)cc3c2)C1 |
| enzyme activity, inhibitor | 10 µM | – | inhibition | 1% | NC(=O)[C@@H](O)C[C@H]1CCc2sc3ncnc(O[C@H]4CC[C@H](N5CCOCC5)CC4)c3c21 |
| binding, competition with immobilised ligand | 1 µM | – | remaining binding | 100% | COc1cc(Nc2nc(C)cc(-c3cnn4nc(OC)ccc34)n2)cc(C(F)(F)F)c1 |
| binding, competition with immobilised ligand | 0.1 µM | – | remaining binding | 87% | Cc1cnc2nc1Nc1cccc(c1)COC/C=C/COCc1cc(ccc1OCCN1CCOCC1)N2 |
| kinase activity, inhibitor, ProQinase kinase profiling | 25 µM | relative to: control | remaining activity | 97% and 79% | COCC12C(=O)NC3C4(C(OC)CC1O)C1CC5(O)C(OC)C(O)C(OC(C)=O)(C1C5OC(=O)c1ccccc1)C3(O)C(OC)C24 (centres unmarked) |
| binding, competition with immobilised ligand | 3 µM | – | remaining binding | 83% | COc1c(Cl)cccc1Nc1c(-c2ccncc2C#C[C@@]2(C)CCCN2C(=O)/C=C/CN(C)C)[nH]c2c1C(=O)NCC2 |
| enzyme activity, inhibitor | 1 µM | – | activity vs control | 110% | CNC(=O)C[C@H](Cc1ccc(C#N)cc1)NC(=O)c1cc(-c2ccc(CN[C@H](C)c3ccc(C)cc3)o2)ccc1Cl |
| kinase activity, inhibitor | 1 µM | relative to: untreated control | remaining activity | 108% | COc1c(OCCCN2CCOCC2)ccc2c1N=C(NC(=O)c1cnc(N)nc1)N1CCN=C21 |
| enzyme activity, inhibitor | 0.5 µM | – | inhibition | 29% | O=C(Nc1ccc(Oc2ncnc3[nH]cc(-c4ccccc4)c23)c(F)c1)c1c2n(n(-c3cc(F)ccc3F)c1=O)CCCC2 |
| enzyme activity, inhibitor | 1 µM | – | inhibition | 76% | Cc1nc2c(F)cc(-c3nc(Nc4ccc(CNC(=O)CCCCCCC(=O)NO)cc4)ncc3F)cc2n1C(C)C |
| cell-free assay, competition with immobilised ligand | 1 µM | – | remaining binding | 85% | C=CC(=O)N1CCCC(n2c(=O)c3ncccc3n(Cc3ccc(Oc4ccccc4)cc3)c2=O)C1 (centres unmarked) |
| enzyme activity | 1 µM | relative to: DMSO control | remaining activity | 101% | Nc1ncc(-c2cc(-c3cnn(CC(F)(F)F)c3)ncc2F)nc1C(=O)NC1CNCC(F)C1 (centres unmarked) |
| cell-free assay, competition with immobilised ligand | 10 µM | – | remaining binding | 72% | CC(C)=CC1OC(C)(C)C2C=C3C(=O)C(Cl)=CC(O)C3C3C(O)C4OC4C(=O)C132 (centres unmarked) |
| enzyme activity, inhibitor | 0.1 µM | – | inhibition | -10% | CN1CCN(Cc2ccc(-c3ccc(CO[C@H]4CCC[C@@H]4NC(=O)c4cc(-c5cnn(C)c5)cnc4N)cc3)cc2)CC1 |
| binding, competition with immobilised ligand | 1 µM | – | remaining binding | 92% | Nc1ncc2c(n1)-c1c([nH]c3ccc(C4=CCOCC4)cc13)CCC2 |
| binding, competition with immobilised ligand | 1 µM | – | remaining binding | 100% | COc1cc(Nc2nccc(-c3cnn4nc(OC)ccc34)n2)cc(C(F)(F)F)c1 |
| enzyme activity | 100 nM, human enzyme, with: 10 µM ATP | relative to: untreated | remaining activity | 90% | O=C=[N][Ru-4]123([n]4c5ccc(O)cc5c5c6c(c7cc(F)c[n+]1c7c54)C(=O)NC6=O)[S+]1CC[S+]2CC[S+]3CC1 (centres unmarked) |
| enzyme activity, inhibitor | 10 µM | – | inhibition | 5% | NC(=O)C[C@H]1CCc2sc3ncnc(O[C@H]4CC[C@H](N5CCOCC5)CC4)c3c21 |
| cell-free assay, inhibitor | 1 µM | – | inhibition | 6.2% | C=CC(=O)N1Cc2nc(-c3cc(-c4cc(Cl)cnc4Cl)c(F)cc3F)n(-c3ccncn3)c2C1 |
| kinase activity, KinaseProfiler | 0.03 µM, species human | relative to: control | remaining activity | 91% | COc1ccc(NC(=O)Nc2ccc3c(c2)C(=O)N(C(C)CO)CC(C)C(CN(C)Cc2ccc4c(c2)OCO4)O3)cc1 (centres unmarked) |
| enzyme activity, inhibitor | 10 µM | – | activity vs control | 116% | O=C(Cc1ccc(OCc2ccccc2)cc1)NC1(C(=O)O)CCN(C(=O)c2ccc(-c3cccc(Cl)c3)cc2)CC1 |

Repeated from above:
| test | setting | how to read | measurement | value | Compound |
| --- | --- | --- | --- | --- | --- |
| enzyme activity, inhibitor | 0.5 µM | – | inhibition | 29% | O=C(Nc1ccc(Oc2ncnc3[nH]cc(-c4ccccc4)c23)c(F)c1)c1c2n(n(-c3cc(F)ccc3F)c1=O)CCCC2 |
| enzyme activity, inhibitor | 1 µM | – | inhibition | 76% | Cc1nc2c(F)cc(-c3nc(Nc4ccc(CNC(=O)CCCCCCC(=O)NO)cc4)ncc3F)cc2n1C(C)C |
